# Experimental data collected from several papers.
# Every numbered part comes from another study and shows a few of its results, in no order. Several values in a cell are separate wells, animals, samples, runs or records.

# Block 1 — action: agonist
# Target: Delta-type opioid receptor, with Gi1 (OPRD1, Homo sapiens, UniProt P41143)
# Chain of UniProt P41143 (whole entry, looked up): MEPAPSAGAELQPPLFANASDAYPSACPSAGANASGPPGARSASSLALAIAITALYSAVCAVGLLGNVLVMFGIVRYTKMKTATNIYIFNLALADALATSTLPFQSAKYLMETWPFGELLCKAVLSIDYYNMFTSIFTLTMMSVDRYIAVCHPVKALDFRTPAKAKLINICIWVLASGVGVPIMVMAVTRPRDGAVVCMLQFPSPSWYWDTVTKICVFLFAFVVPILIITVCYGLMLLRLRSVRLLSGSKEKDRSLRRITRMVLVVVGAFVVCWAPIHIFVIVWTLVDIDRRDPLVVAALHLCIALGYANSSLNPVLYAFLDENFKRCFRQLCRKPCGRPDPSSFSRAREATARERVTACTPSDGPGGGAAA
Structure (SMILES),EC50
NC(=O)NCCCCCCN1CCC23c4c5ccc(O)c4OC2c2nc4ccccc4cc2CC3(O)C1C5 (stereo not drawn),1410 nM
N=C(N)NCCCN1CC[C@]23c4c5ccc(O)c4O[C@H]2c2[nH]c4ccccc4c2C[C@@]3(O)[C@H]1C5,1.82 nM
N=C(N)NCCCCCN1CC[C@]23c4c5ccc(O)c4O[C@H]2c2[nH]c4ccccc4c2C[C@@]3(O)[C@H]1C5,2.82 nM and 3.63 nM

# Block 2 — cell line: P493B lymphoma cells
# Compound: CC(C)OC(=O)[C@H](CCC(=O)C=[N+]=[N-])NC(=O)[C@H](Cc1c[nH]c2ccccc12)NC(=O)C12CCN(CC1)CC2
conditions,viability
100 nM,100%
100 µM,91.9%
30 µM,83.1%

# Block 3
# SMILES: Cn1cc(-c2cccc(CN3CCC4(CC3)COc3c4ccc4c3CN([C@H]3CCC(=O)NC3=O)C4=O)c2)cn1
test system,conditions,Cmax
rat,"oral, 3 mg/kg, approximate dose",0.366 µg/mL and 0.371 µg/mL and 0.513 µg/mL
"cynomolgus monkey, plasma","intravenous, 1 mg/kg",0.271 µg/mL
"rat, plasma","intravenous, 1.02 mg/kg",0.439 µg/mL
cynomolgus monkey,"oral, 3 mg/kg",0.0968 µg/mL and 0.15 µg/mL and 0.0869 µg/mL
"mouse, Crbn I391V, thymus","oral, 30 mg/kg",~0.786 µM
"cynomolgus monkey, plasma","oral, 3.02 mg/kg",0.111 µg/mL
cynomolgus monkey,"intravenous, 1 mg/kg",0.287 µg/mL and 0.251 µg/mL and 0.276 µg/mL
"rat, plasma","oral, 2.98 mg/kg, group mean",0.417 µg/mL
rat,"intravenous, 1 mg/kg, approximate dose",0.441 µg/mL and 0.501 µg/mL and 0.374 µg/mL

# Block 4 — route: subcutaneous; dose: 30 mg/kg
# SMILES: COc1cc(C(=O)OCCCN2CCCN(CCCOC(=O)c3cc(OC)c(OC)c(OCc4ccc([N+](=O)[O-])cc4)c3)CC2)cc(OC)c1OC
test system,conditions,concentration
"CD-1 mice, male, brain",0.1667 h,0.0539 µg/mL
"CD-1 mice, male, spinal cord",8 h,0.0256 µg/mL
"male CD-1 mouse, brain",12 h,0.0169 µg/mL

# Repeated from above (block 3):
test system,conditions,Cmax
"rat, plasma","intravenous, 1.02 mg/kg",0.439 µg/mL
cynomolgus monkey,"intravenous, 1 mg/kg",0.287 µg/mL and 0.251 µg/mL and 0.276 µg/mL
